Measured values collected from several papers.
Each numbered part is a random draw from the data of one study; scales do not carry over between parts.

Study 1 — technique: RNA Bind-n-Seq; form: RNA; sample: in vitro; tested at: not given; relative to: input RNA pool; direction: higher = stronger binding
Target: RING finger protein unkempt homolog, zinc fingers 1-6, GST-SBP tag (UNK, Homo sapiens, UniProt Q9C0B0, residues 30-357)
UniProt Q9C0B0, sequence (30-357, looked up): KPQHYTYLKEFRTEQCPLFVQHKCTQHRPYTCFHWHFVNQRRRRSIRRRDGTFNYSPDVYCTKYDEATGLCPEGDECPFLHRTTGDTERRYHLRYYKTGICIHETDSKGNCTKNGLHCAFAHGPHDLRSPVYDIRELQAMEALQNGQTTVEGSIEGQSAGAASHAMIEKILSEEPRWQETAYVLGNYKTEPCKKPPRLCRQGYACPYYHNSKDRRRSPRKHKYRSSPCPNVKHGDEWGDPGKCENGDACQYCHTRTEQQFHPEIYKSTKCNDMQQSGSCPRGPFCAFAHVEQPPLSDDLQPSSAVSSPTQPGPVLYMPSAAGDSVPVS
Setting: RNA with constant flanks, human-mouse chimeric sites, ends assumed
`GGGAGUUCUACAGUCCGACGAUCCUGGGUAUCAUCUCUCGUGCUGUUAGACACCUGUUCAAGAGUAUUGAUGAGAAAAAGACCUCAGCGAUUAAAAACGGGCUGCCCCCUCCUGAAUUCAAAGUGAAUGCCCAAUUCUUAGAGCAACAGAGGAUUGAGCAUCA` has a bound/input enrichment of 0.274 ratio.
`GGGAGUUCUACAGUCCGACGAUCUAAGUCCUGUGCCAGCAAUUUAUCCCAAAAGUUUUAAAUUCUGGACCAAUAGUGUUUGUUUCCUGAUUAUUGUAUCCAAUACUUUAUCUAGUAUGUAACUCACUCUUACUGAUAAUAAAACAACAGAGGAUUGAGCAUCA` gave a bound/input enrichment of 3.03 ratio.
`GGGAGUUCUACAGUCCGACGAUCGUGUCCUGCUUUCAACUUAAAUCACUGAGGCAUCUCUACUGUUCUGUGAGCAUCAGGACUGUAGCGCUGUGUCACCACAGAUGAGAACAGAAGCAGCCUUUCUGUGGAGAGUGAGAAUGACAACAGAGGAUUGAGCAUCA` gave a bound/input enrichment of 0.141 ratio.
With `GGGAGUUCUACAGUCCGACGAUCUGUAGUUUCGCGGUUCAGGCUUUGUGUGUAGUUCACUUACGGUAUUAAAUUAUUAUUCUGCUUAGCUUAUAAUAAGGAUAAUUGCAUUUAAAGAGGUGAUCACUGAAUACUCUGAAACUUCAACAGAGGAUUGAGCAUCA` the bound/input enrichment was 0.795 ratio.
`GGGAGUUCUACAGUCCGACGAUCUGACAAGGGCACUGCAGAGCCAUGCCUUUCUUGGACAUACAGAAAAAGCUGGGCAUCAGCCUGGACCGGCACUUUAUGUUCCUAAGCGCAGAACAGCCCUACAAGAUCGCCGCUCGGUGCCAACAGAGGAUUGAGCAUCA` has a bound/input enrichment of 0.078 ratio.
`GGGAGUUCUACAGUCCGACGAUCUGUGCCCCACAAGAUCCUACCUGAGUGGCAGCUGAAGUUGACUCCCUCUCCUUGCCUGCCUAGUUUCCCACUGCCCCCCCAUCCCCCAGUGUCGGCUGAGAUGUUGCCUCUGCACGGUUCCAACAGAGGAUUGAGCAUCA` has a bound/input enrichment of 1.92 ratio.

Study 2 — technique: RNAcompete; form: RNA; sample: in vitro; tested at: 20 nM; setting: 7-mer, probes averaged, single round; relative to: mean of 7-mers; direction: higher = stronger binding
Target: PABPC1L2, full length, GST fusion (mouse, UniProt A0ABA7IW68)
Residues (chain): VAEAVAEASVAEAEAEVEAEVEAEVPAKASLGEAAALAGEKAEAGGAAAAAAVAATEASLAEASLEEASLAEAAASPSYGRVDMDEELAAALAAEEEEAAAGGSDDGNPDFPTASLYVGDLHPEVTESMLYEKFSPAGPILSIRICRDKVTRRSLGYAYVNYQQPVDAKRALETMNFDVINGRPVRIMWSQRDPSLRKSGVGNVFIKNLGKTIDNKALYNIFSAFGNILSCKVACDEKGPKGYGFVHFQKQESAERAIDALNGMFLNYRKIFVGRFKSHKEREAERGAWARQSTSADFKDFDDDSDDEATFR
`AAAGGCG` gave a 7-mer Z-score of 0.707.
`CACUCAU` has a 7-mer Z-score of -0.171.
`UCUGUCU` has a 7-mer Z-score of -0.441.
`CAGCUUC` gave a 7-mer Z-score of -0.277.
The 7-mer Z-score of `AACAUGU` is reported as 0.505.
`CUAAAAC` gave a 7-mer Z-score of 1.72.
For `AGAACGU`, the 7-mer Z-score was -0.0953.
With `GAAUUAA` the 7-mer Z-score was 0.0805.
`AACUUCC` gave a 7-mer Z-score of -0.166.
`GCCGAGC` gave a 7-mer Z-score of -0.144.
With `CCUUUUG` the 7-mer Z-score was -0.191.
For `AGUAUCU`, the 7-mer Z-score was -0.142.
`UAAAUUA` gave a 7-mer Z-score of 0.86.
`GUAAACU` gave a 7-mer Z-score of 0.198.
The 7-mer Z-score of `UGAGCCG` is reported as -0.264.

Study 3 — technique: protein binding microarray; form: double-stranded DNA, one strand shown; sample: in vitro; tested at: not given; relative to: not given; direction: higher = stronger binding
Target: Histone acetyltransferase KAT6A, winged helix 1, GST fusion (KAT6A, Homo sapiens, UniProt Q92794, residues 1-85)
Setting: 8-mer, flanks averaged, mean of 2 arrays, mostly near background
Construct (chain): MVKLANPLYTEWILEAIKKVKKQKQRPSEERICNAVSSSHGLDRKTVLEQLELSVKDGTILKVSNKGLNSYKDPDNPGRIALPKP
`CGGCACCA` has an E-score of 0.223.
`ATATCGCA` has an E-score of -0.0275.
`ATATACAC` has an E-score of -0.0789.
`ATTTAACC` gave an E-score of -0.0663.
The E-score of `CCCTGGAA` is reported as -0.152.
The E-score of `GAACACAC` is reported as -0.00312.
With `CGTGTGAC` the E-score was 0.103.
`ATCCGAAG` gave an E-score of -0.151.
For `ACACAGCT`, the E-score was -0.281.
`AACTGAGG` gave an E-score of -0.121.
For `GCTCCCCC`, the E-score was 0.113.
For `AGAACTGG`, the E-score was -0.212.
`TATGACAA` has an E-score of -0.209.
With `CGGAGGCA` the E-score was 0.0485.
The E-score of `CCCATTGA` is reported as 0.0364.
The E-score of `ATCGGATA` is reported as 0.0565.
`CGTAGCTA` gave an E-score of -0.129.
The E-score of `CCCGCTAG` is reported as 0.31.
The E-score of `GGGGACAA` is reported as -0.0104.
`CCCCAGCC` has an E-score of -0.203.
The E-score of `AAGTAGTC` is reported as 0.00702.
For `TAGATCGA`, the E-score was -0.183.
With `ACTTGACT` the E-score was -0.32.
`AGACGATC` gave an E-score of -0.0856.
`ACGCGGGG` gave an E-score of 0.286.

Study 4 — technique: RNA Bind-n-Seq; form: RNA; sample: in vitro; tested at: 200 nM; setting: whole 134-nt RNA, ends assumed; added: 150 mM LiCl; relative to: input library; direction: higher = stronger binding; all molecules: 7-deaza-guanosine replaces G
Target: Ras GTPase-activating protein-binding protein 1, full length (G3BP1, Homo sapiens, UniProt Q13283)
UniProt Q13283, sequence (whole entry, looked up): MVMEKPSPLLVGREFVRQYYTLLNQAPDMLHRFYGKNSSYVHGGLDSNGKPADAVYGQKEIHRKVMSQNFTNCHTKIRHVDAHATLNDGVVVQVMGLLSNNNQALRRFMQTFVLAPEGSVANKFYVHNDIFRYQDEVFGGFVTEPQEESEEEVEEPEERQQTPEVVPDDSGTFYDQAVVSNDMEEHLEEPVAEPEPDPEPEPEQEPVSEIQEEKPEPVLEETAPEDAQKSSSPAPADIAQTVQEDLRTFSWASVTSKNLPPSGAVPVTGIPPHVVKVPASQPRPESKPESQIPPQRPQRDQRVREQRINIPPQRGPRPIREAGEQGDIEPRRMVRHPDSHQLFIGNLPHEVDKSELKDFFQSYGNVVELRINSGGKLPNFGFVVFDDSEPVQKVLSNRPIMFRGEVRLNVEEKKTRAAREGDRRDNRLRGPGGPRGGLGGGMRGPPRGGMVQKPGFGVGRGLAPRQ
`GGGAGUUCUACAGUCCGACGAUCUUCCUCAAGUCCUGUGCUACACAUCGUAUGUACCGAAUCGGAGGAGGGAGGAAAGUAUUAUGUUACGCCGUUCGGAUCUGCACUUCCAGCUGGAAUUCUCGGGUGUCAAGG` has a log2 enrichment of -1.17.
`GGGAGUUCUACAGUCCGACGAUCAGUCCUGUGCUACACAUCGUAUGUACCGAAUCGGGGUUUGGGGUGGGGAAAAAGGGGAAAGUAUUAUGUUACGCCGUUCGGAUCUGCACUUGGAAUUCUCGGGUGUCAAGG` gave a log2 enrichment of 0.324.
With `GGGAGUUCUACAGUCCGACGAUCUGACUUUAGAGGAGGAUCUGAUGGAUAUGGCAGUGGACGUGGAUUUGGGGAUGGCUAUAAUGGGUAUGGAGGAGGACCUGGAGGUGGCAAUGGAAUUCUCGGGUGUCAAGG` the log2 enrichment was 0.123.
With `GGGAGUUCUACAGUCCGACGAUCUGGCCCUGGUGGCAUGCGGGGAGGAAGAGGUGGCCUCAUGGAUCGUGGUGGUCCCGGUGGAAUGUUCAGAGGUGGCCGUGGUGGAGACCGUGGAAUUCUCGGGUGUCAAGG` the log2 enrichment was 0.0217.
`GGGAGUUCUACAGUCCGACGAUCAGUCCUGUGCUACACAUCGUAUGUACCGAAUCGGGGAAAGGGGAGGGGUUUUUGGGGAAAGUAUUAUGUUACGCCGUUCGGAUCUGCACUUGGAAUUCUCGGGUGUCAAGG` gave a log2 enrichment of 0.0292.
With `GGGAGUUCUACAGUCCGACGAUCUCAAGUCCUGUGCUACACAUCGUAUGUACCGAAUCGGGAGGGAAAGGGAAAGGGAAAGUAUUAUGUUACGCCGUUCGGAUCUGCACUUCCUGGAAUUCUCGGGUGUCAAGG` the log2 enrichment was -0.0762.
The log2 enrichment of `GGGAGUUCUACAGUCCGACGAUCUCCUCAAGUCCUGUGCUACACAUCGUAUGUACCGAAUCGGAAAGGAGGAGGAAAGUAUUAUGUUACGCCGUUCGGAUCUGCACUUCCAGCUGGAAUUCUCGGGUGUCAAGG` is reported as -1.22.
`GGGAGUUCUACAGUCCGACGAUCGUGCUACACAUCGUAUGUACCGAAUCGGGGUUUUUUUGGGGAAAAAAAGGGGUUUUUUUGGGGAAAGUAUUAUGUUACGCCGUUCGGAUCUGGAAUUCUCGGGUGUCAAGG` gave a log2 enrichment of -1.71.

A few entries again (study 1):
With `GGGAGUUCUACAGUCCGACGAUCUGUAGUUUCGCGGUUCAGGCUUUGUGUGUAGUUCACUUACGGUAUUAAAUUAUUAUUCUGCUUAGCUUAUAAUAAGGAUAAUUGCAUUUAAAGAGGUGAUCACUGAAUACUCUGAAACUUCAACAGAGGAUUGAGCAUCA` the bound/input enrichment was 0.795 ratio.
`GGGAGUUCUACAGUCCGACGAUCUGACAAGGGCACUGCAGAGCCAUGCCUUUCUUGGACAUACAGAAAAAGCUGGGCAUCAGCCUGGACCGGCACUUUAUGUUCCUAAGCGCAGAACAGCCCUACAAGAUCGCCGCUCGGUGCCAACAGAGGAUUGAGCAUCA` has a bound/input enrichment of 0.078 ratio.
`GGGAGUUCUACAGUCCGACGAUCUGUGCCCCACAAGAUCCUACCUGAGUGGCAGCUGAAGUUGACUCCCUCUCCUUGCCUGCCUAGUUUCCCACUGCCCCCCCAUCCCCCAGUGUCGGCUGAGAUGUUGCCUCUGCACGGUUCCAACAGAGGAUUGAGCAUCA` has a bound/input enrichment of 1.92 ratio.
